{"data": "Measured values of several laboratories", "B1": "trivalent; chain KRRQTSMTDFYHSKRRLIFSGGSGGSGGSGGSGGSGGSKRRQTSMTDFYHSKRRLIFSGGSGGSGGSGGSGGSGGSKRRQTSMTDFYHSKRRLIFS", "B2": "UGT1A9 (Homo sapiens, UniProt O60656); chain GKLLVVPMDGSHWFTMRSVVEKLILRGHEVVVVMPEVSWQLGRSLNCTVKTYSTSYTLEDLDREFKAFAHAQWKAQVRSIYSLLMGSYNDIFDLFFSNCRSLFKDKKLVEYLKESSFDAVFLDPFDNCGLIVAKYFSLPSVVFARGILCHYLEEGAQCPAPLSYVPRILLGFSDAMTFKERVRNHIMHLEEHLLCHRFFKNALEIASEILQTPVTEYDLYSHTSIWLLRTDFVLDYPKPVMPNMIFIGGINCHQGKPLPMEFEAYINASGEHGIVVFSLGSMVSEIPEKKAMAIADALGKIPQTVLWRYTGTRPSNLANNTILVKWLPQNDLLGHPMTRAFITHAGSHGVYESICNGVPMVMMPLFGDQMDNAKRMETKGAGVTLNVLEMTSEDLENALKAVINDKSYKENIMRLSSLHKDRPVEPLDLAVFWVEFVMRHKGAPHLRPAAHDLTWYQYHSLDVIGFLLAVVLTVAFITFKCCAYGYRKCLGKKGRVKKAHKSKTH", "B3": "VEGF-D; sequence looked up; chain FAATFYDIETLKVIDEEWQRTQCSPRETCVEVASELGKSTNTFFKPPCVNVFRCGGCCNEESLICMNTSTSYISKQLFEISVPLTSVPELVPVKVANHTGCKCLPTAPRHPYSIIRR", "note": "Compare with care: the assays were run in different laboratories. ± marks the error that the study gave. Where no end group is shown, it is not given here. [ ]: non-standard residue; d: D form."}
{"Molecule": "CC(C)(C)c1cc(C(C)(C)C)c(NC(=O)c2c[nH]c3ccccc3c2=O)cc1O", "tested on": "CFTR R334W human", "test": "short-circuit current, potentiator", "system": "CFBE", "setting": "14.44 µM, added: forskolin 20 µM", "how to read": "baseline: PKA-activated wild type", "endpoint": "CFTR activity", "value": "5 ± 1.1%"}
{"Molecule": "CCNc1nc(Cl)nc(NC(C)C)n1", "tested on": "PDE4 (rat)", "test": "cAMP accumulation, inhibitor", "system": "primary pituitary cells", "setting": "37 °C", "endpoint": "EC50", "value": "5000 to 6000 nM"}
{"Molecule": "VDPRLI", "tested on": "HPC4 antibody (mouse)", "test": "binding, yeast display flow cytometry", "system": "peptide", "setting": "concentration not given, added: 100 nM HPC4", "endpoint": "cells bound", "value": "96.5%"}
{"Molecule": "COC(=O)C1=C(C)NC(C)=C([N+](=O)[O-])C1c1ccccc1C(F)(F)F (racemic)", "tested on": "rat L-type calcium channel", "test": "fast tail current, agonist, whole-cell patch clamp", "system": "GH3", "setting": "added: 100 mM Ba2+", "endpoint": "EC50", "value": "21 nM"}
{"Molecule": "VVI[dF] (D-Phe4)", "tested on": "PC-12", "test": "protection from Aβ1–42 toxicity, MTT", "setting": "concentration not given, 6 h, Aβ to peptide ratio 1:5, added: Aβ1–42 2 µM", "how to read": "baseline: untreated cells", "endpoint": "cell viability", "value": "70%"}
{"Molecule": "Nc1nc(-c2ccc(OC(F)(F)F)cc2)cs1", "tested on": "MeAIB/glutamine transporter, rat", "test": "MeAIB uptake", "system": "hippocampal neurons, rat", "setting": "20 µM, added: [14C]MeAIB 23.4 µM", "endpoint": "inhibition", "value": "> 90%"}
{"Molecule": "benzalkonium chloride", "tested on": "dentin matrix metalloproteinases, human", "system": "acid-etched dentin", "setting": "0.5 % w/v, 60 s", "how to read": "baseline: untreated", "endpoint": "inhibition", "value": "31%"}
{"Molecule": "B1", "tested on": "PCNA trimer, human", "test": "complex formation, gel filtration", "setting": "concentration not given, pH 7.2", "endpoint": "molecular weight", "value": "~149 kDa"}
{"Molecule": "Cc1ccc(N2C(=O)C(O)=C(C(=O)c3ccc(Cl)cc3)C2c2cccc(F)c2)cc1Br (centres unmarked)", "tested on": "human uPAR", "test": "cell adhesion to vitronectin", "system": "HEK293 expressing uPAR", "setting": "25 µM, added: uPA", "endpoint": "inhibition", "value": "60%"}
{"Molecule": "Ac-DNCPFHYNP-NH2 (N-acetyl, C-amide)", "tested on": "mouse neutrophil elastase", "system": "peptide, wild type neutrophil lysate", "setting": "1.25 or 2.5 mM, 30 min preincubation, pH 8.0, 37 °C", "endpoint": "elastase activity", "value": "no effect"}
{"Molecule": "O=S1(=O)C[C@@H](O)[C@H](O)CS1", "tested on": "PDIA1, ERp44 and AGR2", "system": "T47D cell extract", "setting": "100-fold excess, 2 h, added: biotinylated DDA", "endpoint": "binding competition", "value": "inhibited"}
{"Molecule": "Cc1c2ccncc2c(C)c2c1[nH]c1ccc(OCCN(C)C)cc12", "tested on": "PDGFR-β 3′-end G-quadruplex DNA", "test": "CD", "setting": "concentration not given", "endpoint": "binding stoichiometry", "value": "~1 mol equiv"}
{"Molecule": "B2 (UGT1A9)", "tested on": "Cc1cc(=O)oc2cc(O)ccc12", "test": "steady-state kinetics", "setting": "pH 7.4, 37 °C", "endpoint": "Vmax/Km", "value": "304 µL/min/mg"}
{"Molecule": "Nc1nc2c(ncn2[C@H]2C[C@@H]3OP(=O)(O)OC[C@H]3O2)c(=O)[nH]1", "tested on": "cGMP antibody", "test": "non-acetylated cGMP EIA", "endpoint": "EC50", "value": "5.28 nM"}
{"Molecule": "human clusterin", "tested on": "amyloid beta 1-40 oligomers from disaggregation", "setting": "10 to 20 nM, 21 °C", "endpoint": "persistence of Aβ complexes", "value": "> 50 h"}
{"Molecule": "AAPSPLFVPGPLPQL", "tested on": "GPR15 Chrysemys picta", "test": "intracellular calcium, agonist, Fluo-4 fluorescence", "system": "peptide, CHO transfected with GPR15", "endpoint": "concentration for maximal response", "value": "100 nM"}
{"Molecule": "Ac-DNCQYVYNV-NH2 (N-acetyl, C-amide)", "tested on": "mouse cathepsin G", "test": "inhibitor", "system": "peptide, wild type neutrophil lysate", "setting": "1.25 mM, 30 min preincubation, pH 8.0, 37 °C, added: N-Suc-AAPF-pNA 1 mM", "endpoint": "inhibition", "value": "54%"}
{"Molecule": "Insulin human", "system": "rat, substantia nigra/VTA", "setting": "intranasal, 20 µg per nostril, 360 min", "endpoint": "brain concentration", "value": "47.6 ± 7 pg/mg tissue"}
{"Molecule": "Relaxin", "tested on": "RXFP1 and RXFP2", "test": "agonist", "endpoint": "EC50", "value": "1.05 ± 0.21 nM"}
{"Molecule": "Nc1ncnc2c1ncn2[C@@H]1O[C@H](COP(=O)(O)OP(=O)(O)NP(=O)(O)O)[C@@H](O)[C@H]1O", "tested on": "native rod CNG channel", "test": "ion current, inhibitor, patch clamp", "system": "Ambystoma tigrinum, rod outer segment patch, inside-out", "setting": "500 µM, fully activated channels, added: genistein 100 µM", "endpoint": "genistein inhibition", "value": "decreased"}
{"Molecule": "KETKPLVHPNKNRTRGPRRKLPTRV", "tested on": "actin, rabbit skeletal muscle", "test": "pyrene actin polymerization", "system": "peptide", "setting": "concentration not given, peptide without capping protein, added: 1 µM actin, 20% pyrene", "how to read": "baseline: actin alone", "endpoint": "relative polymerization rate", "value": 0.97}
{"Molecule": "Ac-DNCPYVPNA-NH2 (N-acetyl, C-amide)", "tested on": "mouse neutrophil elastase", "system": "wild type neutrophil lysate", "setting": "1.25 or 2.5 mM, 30 min preincubation, pH 8.0, 37 °C", "endpoint": "elastase activity", "value": "no effect"}
{"Molecule": "CC1=C[C@H](O/C=C2/C(=O)O[C@@H]3c4ccccc4C[C@H]23)OC1=O", "tested on": "SMXL7-YFP (Arabidopsis thaliana)", "test": "confocal microscopy, measured: nuclear SMXL7-YFP", "system": "Nicotiana benthamiana epidermal cells", "setting": "10 µM, 120 min, co-expressed AtD14-mCherry", "how to read": "baseline: mock", "endpoint": "reduction of SMXL7-YFP level", "value": "~50%"}
{"Molecule": "V[Aib]IA (Aib2; Aib = CC(C)(N)C(=O)O)", "tested on": "PC-12", "test": "protection from Aβ1–42 toxicity, MTT", "setting": "concentration not given, 6 h, Aβ to peptide ratio 1:1, added: Aβ1–42 2 µM", "how to read": "baseline: untreated cells", "endpoint": "cell viability", "value": "70%"}
{"Molecule": "O=C(O)Cc1cccc2c(=O)cc(-c3ccccc3)oc12", "tested on": "TBK1", "test": "phosphorylation, inhibitor", "system": "THP-1", "setting": "up to 1 mM, 4 h, added: c-di-GMP", "endpoint": "activity", "value": "inactive"}
{"Molecule": "DPRLG", "tested on": "HPC4 antibody (mouse)", "test": "binding, yeast display flow cytometry", "system": "peptide", "setting": "concentration not given, added: 100 nM HPC4", "endpoint": "cells bound", "value": "94.7%"}
{"Molecule": "B3 (VEGF-D)", "tested on": "human VEGFR-3", "test": "binding, ELISA", "setting": "1000 to 31.25 µg/mL coated", "endpoint": "affinity constant", "value": "264 ± 56.7 µg/mL"}
{"Molecule": "EDQVDPRLIDGK", "tested on": "HPC4 antibody (mouse)", "test": "binding, yeast display flow cytometry", "system": "peptide", "setting": "concentration not given, added: 100 nM HPC4", "endpoint": "cells bound", "value": "97.9%"}
{"Molecule": "NC[C@H](N)C(=O)O", "tested on": "ASCT2", "test": "anion current, substrate", "system": "HEK293 transfected", "setting": "pH 7.40, 0 mV", "endpoint": "Km", "value": "560 ± 70 µM"}
{"note": "Some of these lines once more:"}
{"Molecule": "Nc1ncnc2c1ncn2[C@@H]1O[C@H](COP(=O)(O)OP(=O)(O)NP(=O)(O)O)[C@@H](O)[C@H]1O", "tested on": "native rod CNG channel", "test": "ion current, inhibitor, patch clamp", "system": "Ambystoma tigrinum, rod outer segment patch, inside-out", "setting": "500 µM, fully activated channels, added: genistein 100 µM", "endpoint": "genistein inhibition", "value": "decreased"}
{"Molecule": "VVI[dF] (D-Phe4)", "tested on": "PC-12", "test": "protection from Aβ1–42 toxicity, MTT", "setting": "concentration not given, 6 h, Aβ to peptide ratio 1:5, added: Aβ1–42 2 µM", "how to read": "baseline: untreated cells", "endpoint": "cell viability", "value": "70%"}
{"Molecule": "Ac-DNCPYVPNA-NH2 (N-acetyl, C-amide)", "tested on": "mouse neutrophil elastase", "system": "wild type neutrophil lysate", "setting": "1.25 or 2.5 mM, 30 min preincubation, pH 8.0, 37 °C", "endpoint": "elastase activity", "value": "no effect"}
{"Molecule": "DPRLG", "tested on": "HPC4 antibody (mouse)", "test": "binding, yeast display flow cytometry", "system": "peptide", "setting": "concentration not given, added: 100 nM HPC4", "endpoint": "cells bound", "value": "94.7%"}
